Assay results from different studies.
Each line is one published result; not all experiments were run side by side. Several values in a cell are separate wells, animals, samples, runs or records. ± marks the error that the study gave.
qscR DNA-bound: qscR, DNA-bound (Pseudomonas aeruginosa, UniProt G3XD77)
ABL2 SH2 domain: Tyrosine-protein kinase ABL2, SH2 domain (ABL2, Homo sapiens, UniProt P42684)
UniProt P42684, sequence (whole entry, looked up): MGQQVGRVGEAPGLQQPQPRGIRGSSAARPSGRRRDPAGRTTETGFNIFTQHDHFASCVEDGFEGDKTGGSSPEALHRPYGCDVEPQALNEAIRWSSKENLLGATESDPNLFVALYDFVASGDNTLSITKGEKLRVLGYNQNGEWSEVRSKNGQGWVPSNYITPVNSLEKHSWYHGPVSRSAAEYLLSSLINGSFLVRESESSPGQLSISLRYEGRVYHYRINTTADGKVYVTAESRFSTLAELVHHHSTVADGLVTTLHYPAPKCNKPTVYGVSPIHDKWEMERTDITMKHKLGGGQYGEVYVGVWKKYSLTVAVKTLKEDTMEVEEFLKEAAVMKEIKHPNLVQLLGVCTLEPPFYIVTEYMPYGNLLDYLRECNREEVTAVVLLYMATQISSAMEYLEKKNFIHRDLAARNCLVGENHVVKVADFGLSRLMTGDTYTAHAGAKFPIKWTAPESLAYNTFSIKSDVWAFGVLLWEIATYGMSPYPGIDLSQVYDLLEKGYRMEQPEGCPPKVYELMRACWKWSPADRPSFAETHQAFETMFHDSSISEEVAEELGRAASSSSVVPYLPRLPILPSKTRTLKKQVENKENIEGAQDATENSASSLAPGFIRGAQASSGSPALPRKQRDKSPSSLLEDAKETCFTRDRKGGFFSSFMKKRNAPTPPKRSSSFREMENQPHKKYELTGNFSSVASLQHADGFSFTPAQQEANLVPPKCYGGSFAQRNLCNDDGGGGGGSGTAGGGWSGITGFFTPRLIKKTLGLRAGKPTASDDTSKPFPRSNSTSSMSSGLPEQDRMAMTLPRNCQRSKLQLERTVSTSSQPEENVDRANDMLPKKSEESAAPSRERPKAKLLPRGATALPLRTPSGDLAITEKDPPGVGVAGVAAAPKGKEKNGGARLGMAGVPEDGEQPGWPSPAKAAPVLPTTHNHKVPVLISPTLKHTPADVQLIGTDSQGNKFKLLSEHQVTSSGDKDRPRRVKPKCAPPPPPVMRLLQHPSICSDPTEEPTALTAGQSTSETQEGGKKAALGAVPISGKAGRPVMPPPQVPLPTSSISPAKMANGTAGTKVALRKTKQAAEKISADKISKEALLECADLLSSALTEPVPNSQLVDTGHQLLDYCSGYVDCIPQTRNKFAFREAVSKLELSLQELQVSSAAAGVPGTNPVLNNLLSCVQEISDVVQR
UniProt Q7Z569, sequence (whole entry, looked up): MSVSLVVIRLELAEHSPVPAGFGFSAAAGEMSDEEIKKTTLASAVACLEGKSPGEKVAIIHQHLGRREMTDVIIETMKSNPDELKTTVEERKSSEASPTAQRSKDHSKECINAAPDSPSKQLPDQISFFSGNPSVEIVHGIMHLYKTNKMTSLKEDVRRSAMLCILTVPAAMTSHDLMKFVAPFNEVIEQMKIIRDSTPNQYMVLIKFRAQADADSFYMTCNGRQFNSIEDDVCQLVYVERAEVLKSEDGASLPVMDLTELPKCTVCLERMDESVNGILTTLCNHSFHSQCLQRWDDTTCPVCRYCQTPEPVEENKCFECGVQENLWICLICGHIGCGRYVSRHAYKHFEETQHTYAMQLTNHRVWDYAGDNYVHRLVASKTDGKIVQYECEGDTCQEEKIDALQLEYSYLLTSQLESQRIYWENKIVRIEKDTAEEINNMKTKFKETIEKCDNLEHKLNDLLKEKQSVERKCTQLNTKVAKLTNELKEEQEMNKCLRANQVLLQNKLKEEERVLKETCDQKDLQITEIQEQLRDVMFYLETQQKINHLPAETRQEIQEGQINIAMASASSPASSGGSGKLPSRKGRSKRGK
UniProt P51449, sequence (whole entry, looked up): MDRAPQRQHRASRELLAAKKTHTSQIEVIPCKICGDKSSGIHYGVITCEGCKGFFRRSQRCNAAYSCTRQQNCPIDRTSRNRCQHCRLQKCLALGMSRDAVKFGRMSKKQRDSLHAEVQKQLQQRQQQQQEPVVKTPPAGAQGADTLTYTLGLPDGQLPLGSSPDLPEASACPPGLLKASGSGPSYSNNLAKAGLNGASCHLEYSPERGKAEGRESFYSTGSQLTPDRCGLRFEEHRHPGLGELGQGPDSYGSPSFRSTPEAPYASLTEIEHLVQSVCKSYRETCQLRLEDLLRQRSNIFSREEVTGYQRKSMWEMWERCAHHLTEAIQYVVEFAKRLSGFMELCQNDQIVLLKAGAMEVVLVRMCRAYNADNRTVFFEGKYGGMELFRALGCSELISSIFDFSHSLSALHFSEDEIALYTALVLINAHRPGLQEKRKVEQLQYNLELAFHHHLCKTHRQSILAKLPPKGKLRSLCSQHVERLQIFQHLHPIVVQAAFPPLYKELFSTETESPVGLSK
UniProt O95259, sequence (whole entry, looked up): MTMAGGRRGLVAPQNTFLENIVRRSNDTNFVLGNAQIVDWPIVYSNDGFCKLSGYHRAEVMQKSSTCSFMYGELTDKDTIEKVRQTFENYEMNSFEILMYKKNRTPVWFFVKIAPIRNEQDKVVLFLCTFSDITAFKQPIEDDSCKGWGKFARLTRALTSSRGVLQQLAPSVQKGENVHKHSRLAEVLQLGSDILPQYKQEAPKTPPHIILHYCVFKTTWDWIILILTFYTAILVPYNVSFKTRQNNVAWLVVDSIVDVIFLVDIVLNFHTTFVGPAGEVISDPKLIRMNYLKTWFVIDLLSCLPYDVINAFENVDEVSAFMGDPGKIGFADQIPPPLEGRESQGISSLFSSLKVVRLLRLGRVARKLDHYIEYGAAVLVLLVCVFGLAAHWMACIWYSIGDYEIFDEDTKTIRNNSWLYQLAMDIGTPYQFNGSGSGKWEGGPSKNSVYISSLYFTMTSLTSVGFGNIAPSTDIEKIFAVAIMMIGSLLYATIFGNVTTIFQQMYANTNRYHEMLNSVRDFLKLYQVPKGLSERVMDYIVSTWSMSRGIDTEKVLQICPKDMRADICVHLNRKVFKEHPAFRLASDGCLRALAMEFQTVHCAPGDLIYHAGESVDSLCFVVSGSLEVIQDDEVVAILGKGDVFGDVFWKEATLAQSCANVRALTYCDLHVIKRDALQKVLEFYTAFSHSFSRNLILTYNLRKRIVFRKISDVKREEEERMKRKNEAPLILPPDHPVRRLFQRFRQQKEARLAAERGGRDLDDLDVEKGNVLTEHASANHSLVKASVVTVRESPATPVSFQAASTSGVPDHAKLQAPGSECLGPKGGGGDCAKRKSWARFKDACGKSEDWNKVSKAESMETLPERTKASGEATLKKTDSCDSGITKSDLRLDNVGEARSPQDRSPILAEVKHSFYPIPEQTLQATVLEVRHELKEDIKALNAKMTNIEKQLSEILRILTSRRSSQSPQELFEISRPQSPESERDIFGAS
UniProt P45974, sequence (whole entry, looked up): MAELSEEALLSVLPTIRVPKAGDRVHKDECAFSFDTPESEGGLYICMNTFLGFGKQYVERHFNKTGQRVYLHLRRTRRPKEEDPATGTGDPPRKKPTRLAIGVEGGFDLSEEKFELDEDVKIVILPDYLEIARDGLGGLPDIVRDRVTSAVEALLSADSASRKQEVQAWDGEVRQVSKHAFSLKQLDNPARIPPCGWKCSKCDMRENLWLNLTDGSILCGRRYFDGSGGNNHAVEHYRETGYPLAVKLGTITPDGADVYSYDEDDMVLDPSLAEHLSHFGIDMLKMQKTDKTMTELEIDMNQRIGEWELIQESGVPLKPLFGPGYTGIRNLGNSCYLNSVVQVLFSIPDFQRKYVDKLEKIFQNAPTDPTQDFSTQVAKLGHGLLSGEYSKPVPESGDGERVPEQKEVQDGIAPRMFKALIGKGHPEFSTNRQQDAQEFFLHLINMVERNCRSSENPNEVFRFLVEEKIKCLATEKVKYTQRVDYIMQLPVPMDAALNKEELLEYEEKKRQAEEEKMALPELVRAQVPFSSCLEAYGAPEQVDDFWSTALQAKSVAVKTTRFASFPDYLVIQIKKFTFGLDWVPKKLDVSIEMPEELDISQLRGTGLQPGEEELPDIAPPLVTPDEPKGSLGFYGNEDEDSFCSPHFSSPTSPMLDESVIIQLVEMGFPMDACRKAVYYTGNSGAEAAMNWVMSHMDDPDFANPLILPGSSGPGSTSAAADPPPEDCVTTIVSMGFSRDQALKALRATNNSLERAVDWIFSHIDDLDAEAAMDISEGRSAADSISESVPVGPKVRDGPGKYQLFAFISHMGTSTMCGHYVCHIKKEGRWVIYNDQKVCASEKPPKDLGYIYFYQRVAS
UniProt P10635, sequence (whole entry, looked up): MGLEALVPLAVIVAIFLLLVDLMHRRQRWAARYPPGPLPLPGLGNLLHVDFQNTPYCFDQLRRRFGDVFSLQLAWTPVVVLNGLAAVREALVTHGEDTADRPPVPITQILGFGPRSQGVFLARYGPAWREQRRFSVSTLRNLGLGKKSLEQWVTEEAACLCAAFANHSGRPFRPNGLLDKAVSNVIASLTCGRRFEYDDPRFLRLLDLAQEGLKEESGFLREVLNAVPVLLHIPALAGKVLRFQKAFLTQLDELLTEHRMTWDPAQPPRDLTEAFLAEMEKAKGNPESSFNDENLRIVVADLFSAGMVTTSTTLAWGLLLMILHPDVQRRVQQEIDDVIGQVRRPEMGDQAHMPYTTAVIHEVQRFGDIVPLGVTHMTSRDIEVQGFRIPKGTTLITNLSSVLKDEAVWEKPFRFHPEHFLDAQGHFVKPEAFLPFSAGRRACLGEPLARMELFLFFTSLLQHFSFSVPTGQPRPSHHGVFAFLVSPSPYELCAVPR
UniProt P05046, sequence (whole entry, looked up): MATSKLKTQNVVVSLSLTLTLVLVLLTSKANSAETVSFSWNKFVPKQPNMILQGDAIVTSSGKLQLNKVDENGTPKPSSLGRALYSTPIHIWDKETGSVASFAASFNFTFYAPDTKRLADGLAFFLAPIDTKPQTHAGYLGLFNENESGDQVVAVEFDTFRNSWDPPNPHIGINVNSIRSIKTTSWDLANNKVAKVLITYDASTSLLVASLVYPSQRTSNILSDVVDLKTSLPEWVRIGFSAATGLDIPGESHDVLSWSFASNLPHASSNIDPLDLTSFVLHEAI

Compound	target	test	system	setting	Kd
CCCCCCCCCC(=O)CC(=O)Nc1ccccc1	qscR DNA-bound	DNA binding, ligand, EMSA	–	4 °C, saturating ligand	0.00775 µM
Nc1ncnc2c1ncn2[C@@H]1O[C@H](COP(=O)(O)O)[C@@H](OP(=O)(O)O)[C@H]1O	Thermonuclease (nuc, Staphylococcus aureus, UniProt P00644)	binding, ligand-coupled folding kinetics	–	pH 7.0, 22 °C, 2.7 M urea	122 ± 7 µM
CC[C@H](C)[C@H](NC(=O)c1ccc2c(c1)C(=O)OC21c2ccc(N(C)C)cc2Oc2cc(N(C)C)ccc21)C(=O)N[C@@H](CCC(=O)O)C(=O)N[C@@H](CO)C(=O)N[C@@H](CO)C(=O)N[C@@H](CC(N)=O)C(=O)N[C@@H](Cc1ccc(O)cc1)C(=O)N[C@@H](CCSC)C(=O)N[C@@H](C)C(=O)N1CCC[C@H]1C(=O)N[C@@H](Cc1ccc(OP(=O)(O)O)cc1)C(=O)N[C@@H](CC(=O)O)C(=O)N[C@@H](CC(N)=O)C(=O)N[C@@H](Cc1ccc(O)cc1)C(=O)N[C@H](C(=O)N1CCC[C@H]1C(=O)N[C@@H](CO)C(=O)N[C@@H](C)C(=O)N[C@@H](CC(=O)O)C(=O)O)C(C)C	Breast cancer anti-estrogen resistance protein 3, SH2 domain (BCAR3, Homo sapiens, UniProt O75815)	binding	–	–	1.32 µM
CC[C@@H](C)[C@@H](NC(=O)[C@@H](Cc1ccc(O)cc1)NC(=O)[C@H]1CCCN1C(=O)[C@@H](CCCNC(=N)N)NC(=O)[C@H](N)Cc1c[nH]cn1)C(=O)N[C@H](C)C(=O)N[C@H](Cc1c[nH]cn1)C(=O)N[C@H](CCCNC(=N)N)C(=O)N[C@H](CCCCNC(=O)c1cccc(S(=O)(=O)F)c1)C(=O)N[C@H](Cc1ccc(O)cc1)C(=O)N[C@H](CO)C(=O)N[C@H](Cc1ccccc1)C(N)=O	TFRC (Homo sapiens, UniProt P02786)	microscale thermophoresis	–	2 h, OFP-tagged protein	4.6 ± 5 µM
CSCC[C@H](NC(=O)CNC(=O)[C@H](Cc1ccccc1)NC(=O)[C@H](CC(=O)O)NC(=O)CNC(=O)c1ccc2c(c1)C(=O)OC21c2ccc(N(C)C)cc2Oc2cc(N(C)C)ccc21)C(=O)N[C@@H](CO)C(=O)N[C@@H](CCCNC(=N)N)C(=O)N[C@@H](CC(=O)O)C(=O)N[C@H](C(=O)N[C@@H](Cc1ccc(OP(=O)(O)O)cc1)C(=O)N[C@@H](CO)C(=O)N[C@H](C(=O)N[C@@H](CC(=O)O)C(=O)N[C@@H](Cc1ccc(O)cc1)C(=O)N[C@@H](Cc1ccc(O)cc1)C(=O)N[C@@H](CCCNC(=N)N)C(=O)N[C@H](C(=O)N[C@@H](CC(=O)O)C(=O)O)C(C)C)[C@@H](C)O)C(C)C	ABL2 SH2 domain	binding	–	–	0.444 µM
O=C(CCCOc1ccc(Cl)cc1)NC1CCOC1=O (stereo not drawn)	qscR, DNA-bound dimer (Pseudomonas aeruginosa, UniProt G3XD77)	ligand binding, FRET displacement	–	protein with DNA	0.00101 µM
CCCCc1oc2ccccc2c1C(=O)c1cc(I)c(OCCN(CC)CC)c(I)c1	KCNH1 (Homo sapiens, UniProt O95259)	potassium current, inhibitor, whole-cell patch clamp	HEK293 stably expressing	–	0.27 ± 0.02 µM
CSCC[C@H](NC(=O)[C@H](CC(C)C)NC(=O)[C@H](C)NC(=O)[C@H](CCCNC(=N)N)NC(=O)[C@H](Cc1ccc(OP(=O)(O)O)cc1)NC(=O)[C@H](Cc1ccccc1)NC(=O)[C@H](CC(N)=O)NC(=O)[C@H](CO)NC(=O)[C@H](CC(=O)O)NC(=O)[C@@H](NC(=O)[C@@H]1CCCN1C(=O)[C@H](CO)NC(=O)[C@@H]1CCCN1C(=O)[C@H](CC(C)C)NC(=O)c1ccc2c(c1)C(=O)OC21c2ccc(N(C)C)cc2Oc2cc(N(C)C)ccc21)[C@@H](C)O)C(=O)N[C@@H](CC(=O)O)C(=O)N[C@@H](CCC(=O)O)C(=O)N[C@@H](CCC(=O)O)C(=O)N[C@@H](CC(=O)O)C(=O)O	Tyrosine-protein kinase SYK, SH2 domains (SYK, Homo sapiens, UniProt P43405)	binding	–	–	0.905 µM
CC(=O)N[C@H]1[C@@H](OC[C@H](NC(C)=O)C(=O)N[C@@H](CO[C@H]2O[C@H](CO)[C@H](O)[C@H](O)[C@H]2NC(C)=O)C(=O)N[C@@H](CO[C@H]2O[C@H](CO)[C@H](O)[C@H](O)[C@H]2NC(C)=O)C(=O)NCC(=O)O)O[C@H](CO)[C@H](O)[C@@H]1O	LE1 (Glycine max, UniProt P05046)	glycan microarray	–	3 glycans per BSA	0.044 ± 0.021 µM
O=C(O)CNC(=O)c1cccnc1	BRCA1-associated protein, ZnF-UBD domain (BRAP, Homo sapiens, UniProt Q7Z569)	–	–	–	> 1000 µM
c1c2c(cc3c1OCO3)-c1cc3ccc4c(c3c[n+]1CC2)OCO4	RORC (Homo sapiens, UniProt P51449)	SPR	ligand-binding domain	–	59.7 µM
CCCCCCCCCC(=O)CC(=O)N[C@H]1CCOC1=O	qscR DNA-bound	DNA binding, ligand, EMSA	–	4 °C, saturating ligand	0.00701 µM
N=C(N)NCCC[C@H](N)C(=O)O	uncharacterized protein (Pelagibacter ubique, UniProt Q4FLC2)	isothermal titration calorimetry	Candidatus Pelagibacter ubique	displacement titration, with: octopine competitor 1 mM	0.000105 µM and 4.03e-05 µM and 6.67e-05 µM and 8.07e-05 µM
COc1cc(O)cc(/C=C/c2ccc(O)cc2)c1	O-methyltransferase (Sorghum bicolor, UniProt A0A1B6PFV1)	ITC	–	25 °C, apo enzyme	1.9 ± 0.209 µM
CC[C@H](C)[C@H](NC(=O)[C@H](CC(=O)O)NC(=O)[C@H](C)NC(=O)[C@H](Cc1ccc(OP(=O)(O)O)cc1)NC(=O)[C@H](CCCCN)NC(=O)[C@@H](NC(=O)[C@H](CC(=O)O)NC(=O)CNC(=O)[C@H](CCCCN)NC(=O)[C@H](CCSC)NC(=O)[C@H](CC(=O)O)NC(=O)[C@H](CC(C)C)NC(=O)[C@H](CCSC)NC(=O)c1ccc2c(c1)C(=O)OC21c2ccc(N(C)C)cc2Oc2cc(N(C)C)ccc21)C(C)C)C(=O)N[C@@H](CCC(=O)O)C(=O)N[C@@H](CO)C(=O)N[C@@H](CO)C(=O)N[C@@H](CC(N)=O)C(=O)N[C@@H](CC(=O)O)C(=O)O	Tyrosine-protein kinase ITK/TSK, SH2 domain (ITK, Homo sapiens, UniProt Q08881)	binding	–	–	1.64 µM
CC(C)C[C@H](NC(=O)[C@H](CO)NC(=O)[C@H](CO)NC(=O)CNC(=O)[C@@H]1CCCN1C(=O)[C@H](Cc1ccc(O)cc1)NC(=O)[C@H](CC(C)C)NC(=O)[C@H](CO)NC(=O)[C@H](CS)NC(=O)[C@H](CC(C)C)NC(=O)[C@H](CC(C)C)NC(=O)CCCCCNC(=S)Nc1ccc2c(c1)C(=O)OC21c2ccc(O)cc2Oc2cc(O)ccc21)C(=O)O	Epidermal growth factor receptor, extracellular domain (EGFR, Homo sapiens, UniProt P00533)	binding, fluorescence polarization	EGFR extracellular domain	20 min, room temperature	0.327 µM
CC[C@H](C)[C@H](NC(=O)[C@H](Cc1ccc(O)cc1)NC(=O)[C@H](CCC(=O)O)NC(=O)[C@H](Cc1c[nH]cn1)NC(=O)CNC(=O)[C@H](CC(=O)O)NC(=O)[C@H](CO)NC(=O)[C@H](CO)NC(=O)[C@@H](NC(=O)c1ccc2c(c1)C(=O)OC21c2ccc(N(C)C)cc2Oc2cc(N(C)C)ccc21)C(C)C)C(=O)N[C@@H](Cc1ccc(OP(=O)(O)O)cc1)C(=O)N[C@H](C(=O)N[C@@H](CC(=O)O)C(=O)N1CCC[C@H]1C(=O)N[C@@H](CCSC)C(=O)N[C@@H](CCC(N)=O)C(=O)N[C@@H](CC(C)C)C(=O)N1CCC[C@H]1C(=O)N[C@@H](CC(=O)O)C(=O)O)C(C)C	ABL2 SH2 domain	binding	–	–	0.077 µM
CC(=O)N[C@H]1[C@@H](O[C@H](C)[C@H](NC(C)=O)C(=O)N[C@H](C(=O)N[C@H](C(=O)NCC(=O)O)[C@@H](C)O[C@H]2O[C@H](CO)[C@H](O)[C@H](O)[C@H]2NC(C)=O)[C@@H](C)O[C@H]2O[C@H](CO)[C@H](O)[C@H](O)[C@H]2NC(C)=O)O[C@H](CO)[C@H](O)[C@@H]1O	Vicia villosa lectin	glycan microarray	–	5 glycans per BSA	0.0013 ± 0.0002 µM
O=C(O)CCCN1CC=C(c2ccccc2)CC1	Ubiquitin carboxyl-terminal hydrolase 5, ZnF-UBD domain (USP5, Homo sapiens, UniProt P45974)	–	–	–	561 µM
CC(=O)N[C@H]1[C@@H](OC[C@H](NC(=O)[C@H](CO)NC(C)=O)C(=O)N[C@@H](CO)C(=O)NCC(=O)O)O[C@H](CO)[C@H](O)[C@@H]1O	Vicia villosa lectin	glycan microarray	–	4 glycans per BSA	0.044 ± 0.013 µM
CCCOC/C(=N\c1ccc(Cl)cc1C(F)(F)F)n1ccnc1	Cytochrome P450 2D6 (CYP2D6, Homo sapiens, UniProt P10635)	binding	–	20 min, pH 7.4, purified protein, 2% DMSO	7.32 µM

Repeated from above:
Compound	target	test	system	setting	Kd
N=C(N)NCCC[C@H](N)C(=O)O	uncharacterized protein (Pelagibacter ubique, UniProt Q4FLC2)	isothermal titration calorimetry	Candidatus Pelagibacter ubique	displacement titration, with: octopine competitor 1 mM	0.000105 µM and 4.03e-05 µM and 6.67e-05 µM and 8.07e-05 µM
O=C(O)CNC(=O)c1cccnc1	BRCA1-associated protein, ZnF-UBD domain (BRAP, Homo sapiens, UniProt Q7Z569)	–	–	–	> 1000 µM
